{"data": "Results of several laboratories", "note": "Each line is one published result; not all experiments were run side by side. Several values in a cell are separate wells, animals, samples, runs or records. Numbers after ± are the reported error."}
{"Compound": "COc1cccc(Oc2ccccc2NC(=O)CNC(=O)c2cccc3ccccc23)c1", "system": "esterase-deficient SCID mice, male", "conditions": "oral, 100 mg/kg/day, 14 days, toxicity study", "quantity": "bicarbonate (total CO2)", "result": "22 mmol/L and 18 mmol/L and 20 mmol/L"}
{"Compound": "CCN1[C@@H](C(=O)NC23CCC(C(=O)O)(CC2)CC3)[C@H](c2cccc(Cl)c2F)[C@]2(C(=O)Nc3cc(Cl)ccc32)C12CCCCC2", "system": "patients with advanced solid tumours", "conditions": "oral, 200 mg", "quantity": "Thrombocytopenia incidence", "result": "100%"}
{"Compound": "CN(C(=O)n1cnc(-c2ccc[n+]([O-])c2)c1)C1CCCCC1", "system": "Wistar rat, hippocampus", "conditions": "oral, 10 mg/kg/day, 48 h, repeated 5 days", "quantity": "concentration", "result": "10 ± 1.3 ng/g"}
{"Compound": "Cn1cncc1-c1c(F)cncc1NC(=O)c1c(N)nn2cc(F)cnc12", "system": "human patients", "conditions": "oral, 220 mg once daily", "quantity": "grade ≥3 hyponatraemia incidence", "result": "0%"}
{"Compound": "CC(=O)c1c(C)c2cnc(Nc3ccc(C4CCN(CCS(C)(=O)=O)CC4)cn3)nc2n(C2CCCC2)c1=O", "system": "human, plasma", "conditions": "oral, 25 mg once daily, day 21, multiple doses", "quantity": "t1/2", "result": "424 min"}
{"Compound": "CN[C@@H](C)C(=O)N[C@H]1CN(S(=O)(=O)c2cccc(S(=O)(=O)N3CC[C@H]4CC[C@@H](C(=O)NC(c5ccccc5)c5ccccc5)N4C(=O)[C@@H](NC(=O)[C@H](C)NC)C3)c2)CC[C@H]2CC[C@@H](C(=O)NC(c3ccccc3)c3ccccc3)N2C1=O", "system": "patients with advanced solid tumours", "conditions": "4 mg, phase I monotherapy", "quantity": "treatment-related pruritus incidence", "result": "0%"}
{"Compound": "C[C@]1(CO)Cc2ncn(-c3ccc(C#N)c(Cl)c3)c2C(=O)O1", "system": "human", "conditions": "20 mg multiple doses, fasted", "quantity": "subjects with drug-related somnolence", "result": "0%"}
{"Compound": "COc1cccc(-c2nsc(=O)o2)c1", "system": "RPMI medium", "conditions": "concentration not given, 37 °C, spontaneous hydrolysis", "quantity": "hydrolysis half-life", "result": "43.6 min"}
{"Compound": "CC(C)N(CCc1c[nH]c2cccc(OC(=O)CCCC(=O)O)c12)C(C)C.Cl", "system": "male beagle dog, plasma", "conditions": "intravenous, 1 mg/kg", "quantity": "Tmax", "result": "4.98 min"}
{"Compound": "N=C(N)NCCNC(=O)C1(Nc2ccccc2)CCN(Cc2ccccc2)CC1", "system": "rat, plasma", "conditions": "-20 °C, 2 cycles, 6 ng/mL", "quantity": "freeze-thaw deviation", "result": "3.6%"}
{"Compound": "CCc1ccc(CC/C=C/c2ccc3c(c2)C(=O)CC3)cc1", "system": "Sprague-Dawley rat, female, serum", "conditions": "oral, 30 mg/kg/day, 14 days", "quantity": "sodium", "result": "141 mM"}
{"Compound": "CC(C)n1c(C2CCNCC2)nc2c([N+](=O)[O-])c(Br)c(Br)cc21", "assay": "measured: Pneumonia", "system": "AML patients", "conditions": "125 mg", "quantity": "adverse events causing interruption", "result": "7%"}
{"Compound": "O[C@H]1CCCN[C@@H]1CCCn1cnc2c(Cl)c(Cl)ccc21", "system": "human", "quantity": "effect of UGT2B7 phenotype on pharmacokinetics", "result": "no effect"}
{"Compound": "O=C(Nc1cccc(Cl)c1)C1CCCN(Cc2cccc(-c3ccc(F)cc3F)c2)C1 (centres unmarked)", "tested on": "Vero-E6", "assay": "CellTiter-Glo ATP", "conditions": "concentration not given, 72 h, retest 8-point duplicates", "scale": "relative to: DMSO 0%, hyamine -100%, more negative, more toxic", "quantity": "cytotoxicity efficacy", "result": "0%"}
{"Compound": "COc1cc(Nc2ncc(F)c(Nc3ccc4c(n3)NC(=O)C(C)(C)O4)n2)cc(OC)c1OC", "system": "non-kinase assay buffer", "conditions": "24 h, pH 7.5, 1% DMSO", "quantity": "solubility", "result": "1.4 µM"}
{"Compound": "COc1ccc([C@@H]2CC(=O)c3c(O)cc(O)cc3O2)cc1O", "system": "Sprague-Dawley rat, male, obese, faeces", "conditions": "oral, 100 mg/kg neohesperidin, 48 h", "scale": "relative to: dose", "quantity": "faecal recovery", "result": "1.23 ± 0.04%"}
{"Compound": "CN1CC[C@@H](c2c(O)cc(O)c3c(=O)cc(-c4ccc(C(F)(F)F)cc4Cl)oc23)[C@@H]1CO", "assay": "measured: Syncope", "system": "relapsed B-cell malignancies", "conditions": "oral, 200 mg, grade 3-4, intermittent dosing", "quantity": "patients with adverse event", "result": "0%"}
{"Compound": "O=C1Nc2cc3[nH]nc(-c4ccncc4)c3cc2CN1Cc1ccccc1", "assay": "CTCAE v4.03", "system": "advanced solid tumour patients", "conditions": "intravenous, 7.2 mg/kg, schedules 1/2", "quantity": "patients with headache", "result": "20%"}
{"Compound": "CCN(CC)CCNC(=O)c1[nH]c2ccccc2c1Sc1ccc(Cl)cc1", "tested on": "Vero-E6", "assay": "CellTiter-Glo ATP", "conditions": "72 h, second round 5-point", "scale": "relative to: DMSO 0%, hyamine -100%, more negative, more toxic", "quantity": "maximum response", "result": "-3.17%"}
{"Compound": "C[C@@H](NC(=O)N1C(=O)[C@H](Cc2ccnc(N)c2)[C@H]1C(=O)O)C1CCCCC1", "system": "healthy Chinese adults", "conditions": "continuous intravenous infusion, 0.6 mg/kg/h, 5.0 days", "quantity": "related decreased WBC", "result": "0%"}
{"Compound": "COc1cc2c(Oc3ccc4[nH]c(C)cc4c3F)ccnc2cc1OCC1(N)CC1", "system": "paediatric refractory sarcoma patients", "conditions": "8 mg", "quantity": "Hyperuricaemia incidence", "result": "0%"}
{"Compound": "C[C@]1(O)C[C@@](N)(c2ccc(-c3nc4n(c3-c3ccccc3)COc3ccncc3-4)cc2)C1", "system": "human, advanced or metastatic solid tumours", "conditions": "16 mg once daily, phase I dose escalation", "quantity": "patients with Nausea TEAE", "result": "0%"}
{"Compound": "CCC[C@@](N)(CO)CCc1ccc(OCCCCCC(C)C)cc1", "system": "dog, male hounds, plasma", "conditions": "oral capsule, 10 mg/kg, geometric mean", "quantity": "Cmax", "result": "202 nM"}
{"Compound": "C=CCNc1c(O)cc2c(O)c1C[C@@H](C)C[C@H](OC)[C@H](O)[C@@H](C)/C=C(\\C)[C@H](OC(N)=O)[C@@H](OC)/C=C\\C=C(/C)C(=O)N2", "system": "unresectable or metastatic STS, GIST, other", "conditions": "intravenous, 225 mg/m^2", "quantity": "patients with arthralgia TEAE", "result": "33%"}
{"Compound": "O=S(=O)(Nc1ccccc1)c1ccc(NC(=S)Nc2ccccc2)cc1", "system": "female mouse, blood", "conditions": "oral, 80 mg/kg daily, 14 days", "quantity": "haemoglobin", "result": "13.7 g/dL"}
{"Compound": "CO[C@H]1C[C@@H]2CC[C@@H](C)[C@@](O)(O2)C(=O)C(=O)N2CCCC[C@H]2C(=O)O[C@H]([C@H](C)C[C@@H]2CC[C@@H](OC(=O)NCCOCCOCCOCCOCCOCCOCCOCCOCCC(=O)N3CCc4cc(Cn5nc(-c6ccc7oc(N)nc7c6)c6c(N)ncnc65)ccc4C3)[C@H](OC)C2)C[C@@H](O)[C@H](C)/C=C(\\C)[C@@H](O)[C@@H](OC)C(=O)[C@H](C)C[C@H](C)/C=C/C=C/C=C/1C", "system": "patients with advanced solid tumours", "conditions": "intravenous, dose not given, any grade", "quantity": "incidence of Nausea TEAE", "result": "52.6%"}
{"Compound": "COc1ncccc1-c1cnn2ccc(N3CCN(C(=O)OC(C)C)CC3)nc12", "system": "mouse open field, plasma", "conditions": "oral, 30 mg/kg, 60 min", "quantity": "free concentration", "result": "264 nM"}
{"Compound": "CNC(=O)c1cc(Oc2ccc(NC(=O)Nc3cc(C(C)(C)C)nn3-c3ccc4ncccc4c3)c(F)c2)ccn1", "assay": "viral cardiomyopathy, NCI CTC v3.0", "system": "human patients", "conditions": "oral, 150 mg twice daily, tablet, dose at onset", "quantity": "related SAE", "result": "3%"}
{"Compound": "C=CC(=O)N1CC[C@H](n2nc(C#Cc3cc(OC)cc(OC)c3)c3c(N)ncnc32)C1", "system": "human patients", "conditions": "oral, dose not given, QD regimen, adverse drug reaction, with: any phosphate binder", "quantity": "ALT increased, any grade", "result": "20%"}
{"Compound": "O=C(Oc1ccc(I)cc1)[c-]1cccc1.[Fe+2].c1cc[cH-]c1", "assay": "cyclic voltammetry", "system": "methanol/DMEM 1:1 with TBAPF6", "conditions": "Pt disk electrode, Ag/AgCl reference, with: scan rate 100 mV/s", "quantity": "oxidation potential", "result": "589 mV"}
{"Compound": "CC(C)C[C@H](NC(=O)[C@H](CCCCN)NC(=O)OCC1c2ccccc2-c2ccccc21)C(=O)N[C@H](C(=O)N[C@@H](Cc1ccccc1)C(=O)N[C@@H](Cc1ccccc1)C(=O)N[C@@H](CCCCN)C(=O)NCC(=O)N[C@@H](Cc1ccccc1)C(=O)N[C@@H](C)C(=O)N[C@@H](Cc1c[nH]c2ccccc12)C(=O)N[C@@H](CC(N)=O)C(=O)N[C@H](C(=O)N[C@H]1CSSC[C@@H](C(=O)N[C@@H](Cc2c[nH]cn2)C(=O)N[C@@H](CCCNC(=N)N)C(=O)N[C@@H](CCCNC(=N)N)C(=O)N[C@@H](C)C(=O)N[C@@H](CC(N)=O)C(N)=O)NC(=O)[C@H](C(C)C)NC(=O)[C@H](CCCNC(=N)N)NC(=O)[C@H](C(C)C)NC(=O)CNC(=O)[C@H](CC(N)=O)NC(=O)[C@H](CCCNC(=N)N)NC(=O)[C@H](Cc2ccc(O)cc2)NC(=O)[C@H](C(C)C)NC1=O)C(C)C)C(C)C", "system": "ICR mice, serum", "conditions": "intraperitoneal, 5 mg/kg, day 5", "quantity": "albumin", "result": "33.1 ± 1.24 g/L"}
{"Compound": "O=C(c1ccc(F)c(F)c1Nc1ccc(I)cc1F)N1CC(O)([C@@H]2CCCCN2)C1", "system": "patients aged 2 to 6 years", "conditions": "oral, dose not given", "quantity": "related AE dose modification", "result": "10%"}
{"Compound": "CC(C)Nc1ccnc(Nc2cccc(-c3cccnc3)c2)n1", "assay": "measured: amylase", "system": "mouse, blood", "conditions": "intraperitoneal, 10 mg/kg", "quantity": "blood chemistry", "result": "3760 U/L"}
{"Compound": "O=C(Nc1ccccc1)C1CCN(C(=O)Oc2cccnc2)CC1", "system": "healthy women", "conditions": "oral, 60 mg, 7 days", "quantity": "adverse event Rash", "result": "0%"}
{"Compound": "CC(C)[C@H](C(=O)O[C@H](C#N)c1cccc(Oc2ccccc2)c1)c1ccc(Cl)cc1", "assay": "measured: CYP2B6", "system": "human, age 6 months", "quantity": "enzyme contribution to clearance", "result": "0.68%"}
{"Compound": "C=CC(=O)Nc1cc(Nc2nccc(Nc3cc(Cl)c(F)cc3C(C)(C)O)n2)c(OC)cc1N1CC[C@@H](N(C)C)C1", "assay": "treatment-emergent adverse events", "system": "human", "conditions": "oral, 200 mg, phase I clinical trial", "quantity": "incidence of vomiting", "result": "18.8%"}
{"Compound": "O=c1nc(NO)ccn1[C@@H]1O[C@H](CO)[C@@H](O)[C@H]1O", "system": "rat amniotic fluid dialysate", "conditions": "1000 ng/mL, 6 h, room temperature, high QC concentration, with: molnupiravir", "quantity": "bench-top stability", "result": "97.3 ± 3.77%"}
{"Compound": "NCCCC[C@@H]1NC(=O)[C@@H](Cc2c[nH]c3ccccc23)NC(=O)[C@H](c2ccccc2)NC(=O)[C@@H]2C[C@@H](OC(=O)NCCN)CN2C(=O)[C@H](Cc2ccccc2)NC(=O)[C@H](Cc2ccc(OCc3ccccc3)cc2)NC1=O", "system": "healthy human volunteers", "conditions": "600 µg twice daily", "quantity": "subjects with abdominal pain", "result": "17%"}
{"note": "Excerpt of the above:"}
{"Compound": "COc1cccc(Oc2ccccc2NC(=O)CNC(=O)c2cccc3ccccc23)c1", "system": "esterase-deficient SCID mice, male", "conditions": "oral, 100 mg/kg/day, 14 days, toxicity study", "quantity": "bicarbonate (total CO2)", "result": "22 mmol/L and 18 mmol/L and 20 mmol/L"}
{"Compound": "COc1cccc(-c2nsc(=O)o2)c1", "system": "RPMI medium", "conditions": "concentration not given, 37 °C, spontaneous hydrolysis", "quantity": "hydrolysis half-life", "result": "43.6 min"}
{"Compound": "COc1ncccc1-c1cnn2ccc(N3CCN(C(=O)OC(C)C)CC3)nc12", "system": "mouse open field, plasma", "conditions": "oral, 30 mg/kg, 60 min", "quantity": "free concentration", "result": "264 nM"}
{"Compound": "N=C(N)NCCNC(=O)C1(Nc2ccccc2)CCN(Cc2ccccc2)CC1", "system": "rat, plasma", "conditions": "-20 °C, 2 cycles, 6 ng/mL", "quantity": "freeze-thaw deviation", "result": "3.6%"}
{"Compound": "CNC(=O)c1cc(Oc2ccc(NC(=O)Nc3cc(C(C)(C)C)nn3-c3ccc4ncccc4c3)c(F)c2)ccn1", "assay": "viral cardiomyopathy, NCI CTC v3.0", "system": "human patients", "conditions": "oral, 150 mg twice daily, tablet, dose at onset", "quantity": "related SAE", "result": "3%"}
